Published values from different studies.
Each numbered part is a random draw from the data of one study; scales do not carry over between parts.

Study 1
Target: Interferon regulatory factor 5, full length, phosphomimetic (IRF5, Homo sapiens, UniProt Q13568-2, residues 1-514, K96S/S451D/S453D/S456D/S462D)
Method: protein-binding microarray
Molecule type: double-stranded DNA, one strand shown
Sample: in vitro
Concentration: 250 nM
Setting: 60-bp whole probe
With: salmon DNA 0.4 mg/ml
Baseline: random background probes
Direction: higher = stronger binding
Shared flanks, not repeated: GCCTAGCAC … GTCTTGATTCGCTTGACGCTGCTG
Oligonucleotide | log fluorescence [z-score]
TTAGATCTCCGTTTCGATTAGTGCTAG | 7.3
TTAGGACTGGGGTTCGGTTAGTGCTAG | -0.487
TTAGGTATCGGAATCGGTTAGTGCTAG | 3.33
TTAGGTTTCCTTTCCCTTTAGTGCTAG | 1.96
TTAGGTAACCTACTGCTTTAGTGCTAG | 0.00879
CCACTTTCCATTTCTGTTTTTGTGCTA | 4.24
AGATTTATCAAATGTGGGATTGTGCTA | 0.0616
TTAGGACTGCTTATCCTTTCGTGCTAG | 0.443
TCAACTTTCTATGTCTGACTGTGCTAG | 2.95
GAAGATTTCGGGTATCGAGACGTGCTA | 4.84
TCATTTTTGCTTTCCTTACTGTGCTAG | 2.04
GACGGACTCGGACTGGGGACGTGCTAG | -0.115
TCAGTGTTCTTTTCTGTTACTGTGCTA | 1.47
TCACTTCTGCTTCCTCAGACTGTGCTA | 0.566
TTAGTACTGGGGACTGGGTTAGTGCTA | -0.167
GACGATCTTAGTCTCGAGACGTGCTAG | 0.0639
CTTTCTTTATGCACTCTCTACGTGCTA | 1.59
AAGGGTTAAAATTTTGCTTCGTGCTAG | -0.0933
TTAGCTTTCCTTATCCTTTAGTGCTAG | 1.4
GGTTTTCTGGTTCCCATTCCGTGCTAG | 2.01
GCGCTTCTCGAGTGCCGGCTGGTGCTA | -0.379
GGCGGTTTCGACTTTCGGGACGTGCTA | 8.1
TTCGGTTTCGACTTTCGGTTAGTGCTA | 11
TCAGTTGTAGGTTTTCTGACTGTGCTA | 0.273

Study 2
Target: Histone acetyltransferase KAT6A, both winged helices, GST fusion (KAT6A, Homo sapiens, UniProt Q92794, residues 1-181)
Method: protein binding microarray
Molecule type: double-stranded DNA, one strand shown
Sample: in vitro
Concentration: not given
Setting: 8-mer, flanks averaged, mean of 2 arrays, mostly near background
Baseline: not given
Direction: higher = stronger binding
Construct (chain): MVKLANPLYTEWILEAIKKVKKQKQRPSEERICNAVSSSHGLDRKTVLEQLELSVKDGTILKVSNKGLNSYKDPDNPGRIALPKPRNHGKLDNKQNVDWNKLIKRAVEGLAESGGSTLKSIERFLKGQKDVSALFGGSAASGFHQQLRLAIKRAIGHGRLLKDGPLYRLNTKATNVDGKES
Oligonucleotide | E-score
AGTACGCA | 0.0738
AGATCCAG | -0.12
AACTTGAT | -0.00954
AACTAACC | -0.0947
CTGCCCAA | -0.218
CGTACACC | 0.123
AGCCATGG | -0.221
ATTGTAAA | -0.0786
GTAGCTCA | -0.0568
ACGTGAAC | 0.00513
TACAAGGA | -0.0127
CCAAATAC | -0.246
AGCTACAC | -0.00845
TGAAGAAA | -0.0441
GCGGCTAC | 0.273
GGTCATCA | 0.073
AATGTGCA | -0.0866
GAGCTGAC | -0.056
AATCTGGA | 0.0454

Study 3
Target: RNA binding protein fox-1 homolog 2, RRM domain, GST-SBP tag (RBFOX2, Homo sapiens, UniProt O43251-10, residues 100-194)
Method: RNA Bind-n-Seq
Molecule type: RNA
Sample: in vitro
Concentration: 365 nM
Setting: natural RNA segment, single round, ends assumed
Baseline: no-protein control
Direction: higher = stronger binding
Target sequence (chain): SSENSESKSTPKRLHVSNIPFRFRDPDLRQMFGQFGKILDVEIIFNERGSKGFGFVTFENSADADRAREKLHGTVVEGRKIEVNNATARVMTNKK
Oligonucleotide | RBNS enrichment (R)
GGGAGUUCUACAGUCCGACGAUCUUCUGCCUACCAUCCAGGAAAACUUGUGCUGGAAUUGCUGAUGGAAACAAUUAAAUAUUUACUAUAAUCAGUGUCUUUUCUUCAUCUGCAAGGAACUUUAGCAGGUGCCUUGGAAUUCUCGGGUGCCAA | 0.323
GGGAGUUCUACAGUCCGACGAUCCUUGCGUGCAGCGAGGAGGUCCUCCCUGACAUGCUCAGCAUCCCGCAGUGAUUCCUCUCAUAGCUCUGGGAUGGGGCUUGGUUAGGGUGUCGUGAUGGAAAUAAACCUGAUGGAAUUCUCGGGUGCCAA | 0.444
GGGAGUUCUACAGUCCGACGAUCAGCAAUCAAAUGAUUUAGUCUUGUAAUAAAAUUGCAUUUUAAUUAUCUUAGGUGCUUUUUUUUUCUUGGUAGCCUCAUCCAGGUCCUUGAAGGUCCUCAGAACAUCCUCCUGGAAUUCUCGGGUGCCAA | 0.619
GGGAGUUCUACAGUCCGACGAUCGUAUUAUUUUCUCUGAAUCCUCUUCACUGGCCAAAGGUUGGCAGAUAGAGGCAACUCCCAGGCCAGUGAGCUUUACUUGCCGUGUAAAAGGAGGAAAGGGGUGGAAAAAAUGGAAUUCUCGGGUGCCAA | 0.449
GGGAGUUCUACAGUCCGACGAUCGCCCUGACCUUCUCCUGACCUGGCCUUUGACUCCCCGGAGUGGAGUGGGGUGGGAGAACCUCCUGGGCCGCCAGCCAGAGCCGGUCUUUAGGCUGUGUUGUUCGCCCAGGUGGAAUUCUCGGGUGCCAA | 0.255
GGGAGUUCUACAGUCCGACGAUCAUAAAUGUGAUUUUUGUGUGAUUAUCUGGUUUCCAGUUUUAAACAUUAACUGUCACCUUUUAUUCUUAAACUUGAAAGUACAGAAAUCAUUAAAUUAUUAAGUUGUACAAUGGAAUUCUCGGGUGCCAA | 0.331
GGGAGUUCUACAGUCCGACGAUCGCAAUCAGAAGAGGAUGUGAGCCAGUUUGAUGCACGAUUCACACGGCAGACGCCGGUAGAUAGUCCAGAUGACACAGCCCUCAGUGAGAGUGCCAACCAAGCCUUCCUGGUGGAAUUCUCGGGUGCCAA | 1.05
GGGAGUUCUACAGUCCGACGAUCCAAAUAGCGACAUUUCCAGUUUCUCUUAAAAACCGUGUUUGGUUUCAGUUGGGAUAGGCUUGUUUUGUCUGUUGAAAAUGUUUCUAGUUUUUUUUCUUUCAUUUUUCUCUUGGAAUUCUCGGGUGCCAA | 0.546
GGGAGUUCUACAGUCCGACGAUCUUAGCAAUAUUAGCAUUUCAAUCAGCGAUCUGAGUGUUAGUUGUUUUUCCUUUACAUUUCUAGUAGUUUCCUUACAGAAAGGACCUGCAUUUUUAUUAAUGUGUAGAUUUUGGAAUUCUCGGGUGCCAA | 0.329
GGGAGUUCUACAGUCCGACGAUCUCCUGCCCCUUCACCUUGACCCGGGUUCCCCCACUCCCAUUCCCUGGCCUCUGCCAUAAUUUGUUGUUCAACUGCUCCCUCCUUCCUGAGGGGCCUCAGGGCUUGUGGGGUGGAAUUCUCGGGUGCCAA | 0.873
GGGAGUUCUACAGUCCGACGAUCUCCAACCUGAUUAGUGCAUGGUCAGCCCUCAAUGAAGGCUGAGGCAUCUCUGACUGAGGUGUUUUUGUUUGGUUUUGUUUUUUAAAAUCAUGUAUUUGCUACAAAGUAUUUGGAAUUCUCGGGUGCCAA | 2.6
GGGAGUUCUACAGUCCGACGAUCCCUUCUGGACCCCUCCACUCUGGCCGUACCCGAUGGUCUGAGUGGUUUUGCCACCUCCUCUCUCAGUAUCACUCCCUCCUCCCCAAACCCCAAUCUCCAGUGUCUGUAGCUGGAAUUCUCGGGUGCCAA | 0.649

Study 4
Target: Prothrombin, mature alpha-thrombin (F2, Homo sapiens, UniProt P00734)
Method: aptamer microarray, sandwich
Molecule type: DNA with 2'F-ANA
Sample: in vitro
Concentration: 200 nM
Setting: whole 15-mer aptamer, many near background
With: Cy3 exosite-II aptamer, 400 nM
Direction: higher = stronger binding
Oligonucleotide: GGTTGGTGTGGTTGG
Modification | mean fluorescence intensity [a.u.]
2'F-ANA at 6 8 9 10 12 14 | 115
2'F-ANA at 4 5 6 7 8 12 | 163
2'F-ANA at 1 3 4 8 11 12 13 14 15 | 89.4
2'F-ANA at 4 5 6 9 12 13 14 | 47
2'F-ANA at 1 4 5 6 7 8 9 11 12 15 | 89.6
2'F-ANA at 1 3 10 14 | 57.1
2'F-ANA at 9 10 13 15 | 170
2'F-ANA at 1 2 12 14 15 | 70.1
2'F-ANA at 1 2 3 5 6 9 12 13 14 | 49.7
2'F-ANA at 3 4 6 8 9 10 11 13 14 15 | 140
2'F-ANA at 2 3 4 8 9 14 15 | 289
2'F-ANA at 2 3 4 7 8 11 12 13 14 15 | 333
2'F-ANA at 1 2 3 4 7 8 10 11 12 | 78.7
2'F-ANA at 3 6 8 9 10 11 12 14 | 342
2'F-ANA at 5 8 11 13 14 15 | 44.2
2'F-ANA at 9 10 11 12 13 14 | 116
2'F-ANA at 1 2 4 7 11 12 13 14 15 | 57.6
2'F-ANA at 1 2 3 4 6 7 8 9 12 | 354
2'F-ANA at 1 6 9 12 14 15 | 66.1
2'F-ANA at 1 3 4 6 7 10 11 13 14 15 | 53.8
2'F-ANA at 1 5 7 9 11 12 13 14 | 43
2'F-ANA at 2 4 5 7 9 10 12 13 14 15 | 64.1
2'F-ANA at 1 3 7 8 9 10 11 15 | 92.5
2'F-ANA at 2 3 5 6 7 8 10 11 13 14 | 58.4
2'F-ANA at 2 3 4 8 12 15 | 1080

Excerpt of the above (study 2):
Oligonucleotide | E-score
GGTCATCA | 0.073
AATGTGCA | -0.0866
GAGCTGAC | -0.056
AATCTGGA | 0.0454
